Measured values gathered from unrelated publications.
Compare with care: the assays were run in different laboratories. ± gives the spread as reported.

| SMILES | organism | assay | system | conditions | EC50 [nM] |
| --- | --- | --- | --- | --- | --- |
| CC(C)CCCc1ccc2c(c1)C(=O)C(Br)=C(Br)C2=O | Leishmania infantum | – | intracellular amastigotes, ex vivo mouse splenic explants | 72 h | 90000 ± 4300 |
| CCCCCCSc1cccc(O)c(=O)c1O | human alphaherpesvirus 1 | viral replication, plaque reduction | Vero | – | 930 ± 80 |
| Nc1ncnc2c1c(I)cn2[C@@H]1O[C@H](CO)C[C@H]1O | Trypanosoma equiperdum | parasite growth, resazurin | – | 72 h | 2 |
| CC1(CCCCCCCCCCOCCCOP(=O)(O)CO[C@H](CO)Cn2ccc(N)nc2=O)COC1 | human gammaherpesvirus 4 | qPCR | Akata | 3 days | 9940 ± 13200 |
| CCCCCOC(=O)C12CCC(C)C(C)C1C1=CCC3C4(C)CCC(OC5OC(CO)C(OC6OC(C)C(O)C(O)C6O)C(O)C5OC5OC(C)C(O)C(O)C5O)C(C)(C)C4CCC3(C)C1(C)CC2 (stereo not drawn) | PRRSV | viral replication, immunofluorescence | MARC-145, GD-XH | 48 h p.i. | 6210 ± 470 |
| Nc1ncnc2c1c(Br)cn2[C@@H]1O[C@H](CO)C[C@H]1O | Trypanosoma equiperdum | parasite growth, resazurin | – | 72 h | 0.5 |
| CC1(CCCCCCCCCCCCOCCCOP(=O)(O)CO[C@H](CO)Cn2ccc(N)nc2=O)COC1 | human alphaherpesvirus 1 | cytopathic effect | HFF, E-377 | – | 2380 ± 2900 |
| Nc1ncnc2c1ccn2[C@@H]1O[C@H](CO)C[C@H]1O | Trypanosoma equiperdum | parasite growth, resazurin | – | 72 h | 3 |
| Nc1ccn(C[C@@H](CO)OCP(=O)(O)OCCCS(=O)(=O)CCCCCCCCCCCCCC2CCC2)c(=O)n1 | human gammaherpesvirus 4 | qPCR | Akata | 3 days | 80 ± 70 |
| COc1cc(OC(C)=O)c2cc3c(cc2c1OC(C)=O)CCCC3(C)C | Leishmania infantum | parasite growth | – | 72 h, promastigote | 16600 |
| Nc1ncnc2c1c(C(F)(F)F)cn2[C@@H]1O[C@H](CO)[C@@H](O)[C@H]1O | Trypanosoma equiperdum | parasite growth, resazurin | – | 72 h | 190 |
| Nc1nc2c(ncn2COCCOC(=O)[C@@H](N)CS)c(=O)[nH]1 | human alphaherpesvirus 1 | viral cytopathic effect, CPE inhibition | – | – | 5400 |
| Nc1ncnc2c1c(F)cn2[C@@H]1O[C@H](CO)C[C@H]1O | Trypanosoma equiperdum | parasite growth, resazurin | – | 72 h | 0.5 |
| CC(C)=CCCC1=CCC2=C(C1)C(=O)c1ccccc1C2=O | Leishmania infantum | – | intracellular amastigotes, ex vivo mouse splenic explants | 72 h | 21500 ± 1100 |
| CCCCSc1ccc(SCCCC)c(O)c(=O)c1O | human alphaherpesvirus 1 | viral replication, plaque reduction | Vero | – | 260 ± 60 |
| Nc1ccn(C[C@@H](CO)OCP(=O)(O)OCCCS(=O)(=O)CCCCCCCCCCC2CCC2)c(=O)n1 | human gammaherpesvirus 4 | qPCR | Akata | 3 days | 14800 ± 25500 |
| CC(C)Oc1ncnc2c1c(Cl)cn2[C@@H]1O[C@H](CO)[C@@H](O)[C@H]1O | Trypanosoma equiperdum | parasite growth, resazurin | – | 72 h | 110 |
| Nc1ccn(C[C@@H](CO)OCP(=O)(O)OCCCS(=O)(=O)CCCCCCCCCCCCC2CCC2)c(=O)n1 | human gammaherpesvirus 4 | qPCR | Akata | 3 days | 140 ± 110 |
| O=c1c(O)cccc(SCc2ccccc2)c1O | human alphaherpesvirus 1 | viral replication, plaque reduction | Vero | – | 590 ± 60 |
| CCOC(=O)[C@@H](C)NP(=O)(CO[C@H](CF)CN1CNC(N)=NC1=O)N[C@H](C)C(=O)OCC | human adenovirus 2 | cytopathic effect | – | – | > 100000 |
| CC1(C)CCCc2cc3c(cc21)C(=O)C=CC3=O | Leishmania infantum | – | intracellular amastigotes, ex vivo mouse splenic explants | 72 h | 23000 ± 2100 |
| Nc1nc2c(ncn2COCCOC(=O)[C@@H](N)CO)c(=O)[nH]1 | human alphaherpesvirus 1 | viral cytopathic effect, CPE inhibition | – | – | 6300 |
| CC(C)=CCCC1=CCC2C(=O)c3ccccc3C(=O)C2C1 (stereo not drawn) | Leishmania infantum | parasite growth | – | 72 h, promastigote | 69600 |
| CC1(CCCCCCCCCCCCCCOCCCOP(=O)(O)CO[C@H](CO)Cn2ccc(N)nc2=O)COC1 | human alphaherpesvirus 1 | cytopathic effect | HFF, E-377 | – | 1470 ± 1730 |
